Results gathered from unrelated publications.
Each numbered part is a random draw from the data of one study; scales do not carry over between parts. Substitutions count along the parent as printed.

Sample 1
Target: Interferon regulatory factor 7, full length, phosphomimetic (IRF7, Homo sapiens, UniProt Q92985, residues 1-503, S471D/S472D/S475D/S476D/S477D/S483D/S484D/S487D)
Sequence of UniProt Q92985 (whole entry, unmodified, looked up): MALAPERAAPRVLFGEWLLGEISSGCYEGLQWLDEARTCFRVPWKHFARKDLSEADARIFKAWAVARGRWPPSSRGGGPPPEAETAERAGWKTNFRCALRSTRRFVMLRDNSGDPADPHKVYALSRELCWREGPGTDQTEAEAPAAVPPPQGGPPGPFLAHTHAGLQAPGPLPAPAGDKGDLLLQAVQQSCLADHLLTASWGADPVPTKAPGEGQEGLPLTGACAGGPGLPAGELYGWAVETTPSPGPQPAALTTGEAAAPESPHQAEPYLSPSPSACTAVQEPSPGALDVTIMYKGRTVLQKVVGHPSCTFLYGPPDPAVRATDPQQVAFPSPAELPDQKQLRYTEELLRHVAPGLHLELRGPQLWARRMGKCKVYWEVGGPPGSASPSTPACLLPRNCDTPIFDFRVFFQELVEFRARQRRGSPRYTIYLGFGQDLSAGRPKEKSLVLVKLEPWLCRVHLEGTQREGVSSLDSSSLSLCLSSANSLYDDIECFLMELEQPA
Technique: protein-binding microarray
Molecule type: double-stranded DNA, one strand shown
Sample: in vitro
Tested at: 2200 nM top
Notes: 60-bp whole probe
Added: salmon DNA 0.4 mg/ml
Reference: random background probes
Reading: higher = stronger binding
Measurement: fitted relative affinity
Constant ends, left off below: GCCTAGCAC … GTCTTGATTCGCTTGACGCTGCTG
TCACAGAAGGGAAACAGGACTGTGCTA: -0.801 z-score
TTAGGACAGCTTTTCCTTTAGTGCTAG: 0.707 z-score
TTCGGTCTCCTTCTCCTTTAGTGCTAG: 2.15 z-score
GGCCCTATAGGTTTCTATATGTGCTAG: 0.425 z-score
GACGATTTCAGTATCGATACGTGCTAG: 1.25 z-score
TCATATTTAAGGCCTATGACTGTGCTA: -0.00898 z-score
GACGAACTGAGTATCAAGACGTGCTAG: -0.434 z-score
TTAGGTATCGGACTGGGTTTGTGCTAG: 0.187 z-score
ATTGCTTCCTCTTTCACTGCGTGCTAG: 3.36 z-score
GACGGACTGGGGTATCCGGACGTGCTA: -0.712 z-score
GACGGTTGCGACTTTCGGGACGTGCTA: 3.28 z-score
TTGGGTTTCCTTCTCCTTTAGTGCTAG: 2.38 z-score
GACGATTTCGACTATCGGGACGTGCTA: 1.73 z-score
TCAGACCTCGTCTCTATCACTGTGCTA: 0.696 z-score
TTAGGTCTCCGTTTCGGTTAGTGCTAG: 3.9 z-score
GACGGTTTGGGGACTGGGGACGTGCTA: 0.568 z-score
TCATTTTTTTTTTTTCTACTGTGCTAG: 2.66 z-score
TTCGGACTGGGGACTGGGTTAGTGCTA: -0.655 z-score
TCATATATGTGTATATAACTGTGCTAG: 1.01 z-score

Sample 2
Target: Hepatocyte nuclear factor 3-alpha (Foxa1, Mus musculus, UniProt P35582, residues 1-468, full length assumed)
Sequence of UniProt P35582 (whole entry, looked up): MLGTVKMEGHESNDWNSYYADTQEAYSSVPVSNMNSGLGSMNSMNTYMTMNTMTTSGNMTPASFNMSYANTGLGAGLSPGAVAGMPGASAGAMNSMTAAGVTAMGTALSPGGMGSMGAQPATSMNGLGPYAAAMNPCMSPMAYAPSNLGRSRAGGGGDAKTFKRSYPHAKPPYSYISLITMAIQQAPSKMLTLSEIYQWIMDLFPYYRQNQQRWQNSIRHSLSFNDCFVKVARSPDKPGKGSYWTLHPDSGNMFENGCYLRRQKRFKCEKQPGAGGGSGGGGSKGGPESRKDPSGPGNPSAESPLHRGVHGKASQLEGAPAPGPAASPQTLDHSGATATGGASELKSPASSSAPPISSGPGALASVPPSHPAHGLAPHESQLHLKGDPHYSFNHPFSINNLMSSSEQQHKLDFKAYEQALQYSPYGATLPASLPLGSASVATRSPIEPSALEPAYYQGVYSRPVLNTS
Technique: EMSA with sequencing
Molecule type: double-stranded DNA, one strand shown
Sample: in vitro
Tested at: 10 and 20 nM
Notes: whole designed probe, mean of two concentrations, ends assumed
Reference: negative control set to 0
Reading: higher = stronger binding
Measurement: normalised bound fraction
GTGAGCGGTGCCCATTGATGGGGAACTTCTGAAGAGTCAGAGAAGTTCTGAGTCACCTGGAGATCATTCCAGGAGGAATAAAAGACTTCTACATGTAACCAGCTTACATCATATCCAAAATAATCTCAAGGAATATTTAAGCATGACCAAAATGCTGTAATTATTTAATGACAAAACCACATATAACAGGAGGTGGGGACAGTTATTATAAGAACTGGCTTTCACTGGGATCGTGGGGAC: -0.00909 ratio
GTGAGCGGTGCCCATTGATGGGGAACACATATGACCATTTTTTGGTTTATGTTTGGTCCCCTCTGATTGTTACATATACTTGAATTGCTTGCTTGGATGGGGAGCATACAAAATAATTAAGTAAACATGAAGAAAAGTAGCTTGATTCGTTGCTAGGCTGAAGGATCACATAGAAAAGTTTTTTTCCAATTGCCCAAAATTAAGTACAAATACACACATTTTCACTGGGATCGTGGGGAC: 0.38 ratio
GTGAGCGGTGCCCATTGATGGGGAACATCTTCCCCCTCTTCCTTGCCCCACCAGCTCACCTTCCCGGGTATATTGGAGATAGGAAATTAATATAAGCCGGCATTCGTTAACCCTCTTCACGCGCATACTGCTGTTTGCTCTGGATCTAACATGGTCCTTTGGCGACGCCAGGCTCCGGGAGAGCAAAGCACCGTGTCAGGGCCATGATCCGGGGTGGCCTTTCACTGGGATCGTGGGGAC: 0.124 ratio
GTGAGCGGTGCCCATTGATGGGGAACTTTCCAGCCCTTAGTTTCTGGCATTTAACCTGACTCTGGTCCCTGAATGGCATGGGAGTGCTTTCAACCACAGGTTTCCACATTCATGCCACTTGTTTGCTTTTCTGACTCATTCTGATCTACAGAGATCTTTATTTGCTTTGTGTTTCCAATGGAGAAAGAGCTTGGGAAGGGAGGATCCTAATTGTCTAAATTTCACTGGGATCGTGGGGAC: 0.486 ratio
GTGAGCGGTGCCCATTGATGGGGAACTTTTTTCTTTTAGTTTTCATTTTTTTTCTGAAAACAGAAACACACAGTAACATGTAATATAAAATTGCTTTTATTATAAATAACCCCTTACAATGTAAACAAATATATTGATATTATAAAACCACTGGTCCTCATTTGTTTTAATATGGCAAAATTAAATAACCTTTCACATTAAAAATATACTCTTTAGTTTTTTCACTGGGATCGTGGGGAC: 0.456 ratio
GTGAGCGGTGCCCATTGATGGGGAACTTAAAATTCCAAAGCACAAGTAGTAAAACAAATAAACATAAAAGGTTTGATTCAAAATTAAATATTTTTTCATTCTACAAAGGATATAACAAAGTAAATAAAGAAATAAAGAATAGGAGAATATATTTATGCCTCAAACAAAAAAAATCATCTGGCATATACAAGAAATTCCTACAAGTCAACATTTTAAAAATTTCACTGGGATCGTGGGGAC: 0.376 ratio
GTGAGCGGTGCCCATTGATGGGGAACCAGGTTCTCCAGACTAACTAGACATTGGCAGGGTTGACTGATATTCTGCCAGCAAATCCCTCTTCTGCTCTAGTCAGCCAGGGCTGGTGACTGTGTAATCTAGACCCCTCTCACTCCTCCCACAGCTGTGCTGCAGATGACACACACACTTCTCTTAACAATTTTTATTGAAGAAAAAATAGGCTGCTTTGCATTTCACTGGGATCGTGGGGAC: -0.0502 ratio
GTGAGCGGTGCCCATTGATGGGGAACCATGTTCCAAGAGAAGAGAAGGTAAAGCAGTGTCTATGTTACAAACAAAAAGGAACTGAGCTACAAGACTGAAAAACTGAAAGAAACAGCAATGTAATCTAGCCGTTTACTTGACATCATAAATGTATCTTTGGCTTTCTACTCCTCTCCCTCAAAAAAAAGGAAAGAAAACGTATCAAAATAGGTTAGGCAGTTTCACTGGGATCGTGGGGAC: -0.0282 ratio

Sample 3
Target: CCNE2, cyclin fold, Cln2 fusion (human)
Technique: yeast growth competition, sequencing
Sample: yeast
Notes: weak parent motif
Reference: not given
Reading: higher = stronger binding
Measurement: normalised enrichment score
Starting sequence: MICAL3 docking peptide (human); LQLRRQLSFSEDS
S10A: 0.384
E11F: 0.316
Q6I: 0.729
L3I: 0.871
S10W: 0.339
Q2S: 0.321
Q2E: 0.0604
Q2L: 0.272
S8N: 0.501
S8C: 0.206
R4N: 0.0568
R5Y: 0.393
L3T: 1.9
S10E: 0.377
R5L: 0.0203
E11I: 0.0132
Q6V: 0.689
R4C: -0.0149
R4H: -0.0342
R4W: 0.268
Q2W: 0.153

Sample 4
Target: CREB3L2, bZIP domain (human)
Technique: DHFR protein complementation
Sample: yeast
Notes: single substitutions, most at no-binding floor
Reference: wild-type JUN-FOS pair
Reading: higher = stronger binding
Measurement: binding fitness
Starting sequence: JUN, bZIP domain (human); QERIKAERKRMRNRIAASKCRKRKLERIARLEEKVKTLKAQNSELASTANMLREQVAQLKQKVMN; partner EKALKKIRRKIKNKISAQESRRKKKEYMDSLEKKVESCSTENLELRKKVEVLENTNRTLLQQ
E44L: -1.41 natural log
I28V: -1.24 natural log
R53Y: -1.54 natural log
I28H: -1.46 natural log
N42M: -1.34 natural log
S47F: -1.5 natural log
L45P: -1.47 natural log
E44R: -1.47 natural log
T48P: -1.5 natural log
S43T: -1.48 natural log
K34M: -1.32 natural log
V56S: -1.52 natural log
T37H: -1.42 natural log
E54T: -1.4 natural log
M51E: -1.47 natural log
L31R: -1.53 natural log

Sample 5
Target: Histone acetyltransferase KAT6A, winged helix 1, GST fusion (KAT6A, Homo sapiens, UniProt Q92794, residues 1-85)
Technique: protein binding microarray
Molecule type: double-stranded DNA, one strand shown
Sample: in vitro
Tested at: not given
Notes: 8-mer, flanks averaged, mean of 2 arrays, mostly near background
Reference: not given
Reading: higher = stronger binding
Measurement: E-score
Residues (chain): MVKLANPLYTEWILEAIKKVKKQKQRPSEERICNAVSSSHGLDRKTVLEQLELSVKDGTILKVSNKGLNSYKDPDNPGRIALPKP
CCCTAAAC: -0.0948
ACTAGGGC: -0.0742
AACATAGA: -0.081
GATGGCCC: 0.0434
GCAGGAAA: -0.13
CATATAAG: -0.287
CAGTTTGC: 0.0567
ACAAGACT: -0.208
CGACTCCC: 0.0101
CCAGAACC: -0.151
ACCACTCA: -0.179
CTGAAAAA: -0.209
GAATGGGC: -0.0888
ACCTCAAA: -0.106
AAGGCTAG: -0.0867
GAGGTTTA: -0.122
ATACGCAC: 0.134
TTCCTCAA: -0.0775
AAGAACCT: -0.172
ATGGCGGC: 0.287
GTTTTTCA: -0.158

Sample 6
Target: ABI1, truncated, D143A, DHFR fusion (Arabidopsis thaliana)
Technique: DHFR PCA, deep sequencing
Sample: yeast
Notes: methotrexate growth selection, single substitutions
Added: (+)-ABA 200 µM
Reference: wild-type fitted maximum
Reading: higher = stronger binding
Measurement: relative binding score
Starting sequence: PYL1, truncated, DHFR fusion (Arabidopsis thaliana); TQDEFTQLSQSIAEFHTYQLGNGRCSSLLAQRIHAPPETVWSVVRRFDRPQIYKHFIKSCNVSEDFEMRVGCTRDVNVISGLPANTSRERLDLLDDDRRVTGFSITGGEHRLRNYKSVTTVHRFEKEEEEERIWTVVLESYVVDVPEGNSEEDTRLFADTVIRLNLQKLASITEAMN; partner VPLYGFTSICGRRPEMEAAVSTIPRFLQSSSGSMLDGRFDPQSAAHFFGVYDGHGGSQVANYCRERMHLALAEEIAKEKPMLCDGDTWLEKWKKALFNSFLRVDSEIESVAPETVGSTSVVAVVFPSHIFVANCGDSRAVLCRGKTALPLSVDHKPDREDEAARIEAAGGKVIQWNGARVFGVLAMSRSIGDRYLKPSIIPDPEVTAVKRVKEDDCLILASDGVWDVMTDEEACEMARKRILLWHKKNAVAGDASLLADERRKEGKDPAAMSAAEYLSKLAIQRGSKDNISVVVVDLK
S171N: 99.9%
I172A: 83.1%
L28C: 87.9%
S150T: 98.8%
F5N: 82%
R74P: -3.79%
A175G: 103%
D159I: -5.13%
D153F: 6.34%
S171T: 101%
A84M: 17%
S42E: 97%
D75S: 102%
S117W: -8.27%
S140M: 5.26%
L169A: 3.17%
Q51S: 79%
L91G: 3.2%
G23M: 88.5%

For quick reference, copied from above (sample 6):
S42E: 97%
S171T: 101%
A175G: 103%
L28C: 87.9%
G23M: 88.5%
S171N: 99.9%
S117W: -8.27%
D153F: 6.34%
D159I: -5.13%
S150T: 98.8%
R74P: -3.79%
A84M: 17%
S140M: 5.26%
D75S: 102%
F5N: 82%
L169A: 3.17%
